{"data": "Earlier results, collected from citations in different studies", "note": "Protocols differ between the studies behind these lines.", "UniProt Q8TDR2, sequence (whole entry, looked up)": "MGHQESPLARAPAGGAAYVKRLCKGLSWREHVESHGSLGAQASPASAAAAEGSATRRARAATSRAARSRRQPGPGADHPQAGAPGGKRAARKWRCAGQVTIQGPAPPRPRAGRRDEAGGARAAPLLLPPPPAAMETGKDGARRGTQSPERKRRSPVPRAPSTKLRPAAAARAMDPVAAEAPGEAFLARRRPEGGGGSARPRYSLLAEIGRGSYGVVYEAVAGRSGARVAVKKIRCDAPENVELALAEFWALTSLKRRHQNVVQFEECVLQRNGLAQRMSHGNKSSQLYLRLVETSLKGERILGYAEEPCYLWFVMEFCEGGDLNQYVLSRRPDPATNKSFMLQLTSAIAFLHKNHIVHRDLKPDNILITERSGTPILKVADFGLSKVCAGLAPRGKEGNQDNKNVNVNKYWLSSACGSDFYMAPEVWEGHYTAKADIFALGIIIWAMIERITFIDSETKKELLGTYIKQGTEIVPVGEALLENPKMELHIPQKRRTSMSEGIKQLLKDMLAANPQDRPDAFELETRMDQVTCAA"}
{"SMILES": "N[C@@H]1c2cccnc2[C@H](OC(=O)N2CCC(n3c(=O)[nH]c4ncccc43)CC2)CC[C@H]1c1cccc(F)c1F", "system": "plasma", "conditions": "75 mg", "quantity": "Cmax", "value": "1200 nM"}
{"SMILES": "O=C(O)c1cc(-c2ccc(F)cc2F)ccc1O", "system": "plasma", "conditions": "concentration not given", "quantity": "Cmax", "value": "496000 nM"}
{"SMILES": "CC(C)(O/N=C(\\C(=O)N[C@@H]1C(=O)N2C(C(=O)[O-])=C(C[n+]3ccccc3)CS[C@H]12)c1csc(N)n1)C(=O)O", "tested on": "Klebsiella pneumoniae", "system": "clinical isolate RKI-No_107/15", "quantity": "MIC", "value": "≤ 2 µg/mL"}
{"SMILES": "COc1cc(N2CCC(N3CCN(C)CC3)CC2)ccc1Nc1ncc(Cl)c(Nc2ccccc2P(C)(C)=O)n1", "system": "healthy subjects", "conditions": "90 mg, single dose alone, itraconazole study", "quantity": "Cmax", "value": "331 ng/mL"}
{"SMILES": "CC1(C)S[C@@H]2[C@H](NC(=O)[C@H](N)c3ccccc3)C(=O)N2[C@H]1C(=O)O", "tested on": "Acinetobacter baumannii", "system": "clinical isolate RKI-No_13/16", "quantity": "MIC", "value": "> 16 µg/mL"}
{"SMILES": "Nc1cc(C(F)(F)F)c(-c2nc(N3CCOCC3)nc(N3CCOCC3)n2)cn1", "tested on": "Serine/threonine-protein kinase 35 (STK35, Homo sapiens, UniProt Q8TDR2)", "test": "enzyme activity", "conditions": "10 µM", "how to read": "relative to: untreated", "quantity": "remaining activity", "value": "85%"}
{"SMILES": "CC(C)NCC(O)COc1cccc2ccccc12 (stereo not drawn)", "system": "plasma", "conditions": "concentration not given, total concentration", "quantity": "Cmax", "value": "95 nM"}
{"SMILES": "COc1ccnc(C[S+]([O-])c2nc3ccc(OC(F)F)cc3[nH]2)c1OC (stereo not drawn)", "system": "plasma", "conditions": "concentration not given, total, steady state", "quantity": "Cmax", "value": "6000 nM"}
{"SMILES": "C=C(CC)C(=O)c1ccc(OCC(=O)O)c(Cl)c1Cl", "system": "plasma", "conditions": "concentration not given", "quantity": "Cmax", "value": "30900 nM"}
{"SMILES": "COc1cc(N)c(Cl)cc1C(=O)NC1CCN(CCCOc2ccc(F)cc2)CC1OC (stereo not drawn)", "system": "plasma", "conditions": "concentration not given, total, steady state", "quantity": "Cmax", "value": "90 nM"}
{"SMILES": "Cn1c(=O)c2[nH]cnc2n(C)c1=O", "system": "plasma", "conditions": "concentration not given, total, literature data", "quantity": "Cmax", "value": "16400 nM"}
{"SMILES": "Cc1nn(C)cc1S(=O)(=O)NC(=O)c1ccc(-n2ccc(OCC(C)(C)C(F)(F)F)n2)nc1N1C[C@@H](C)CC1(C)C", "system": "non-pregnant cystic fibrosis patients, plasma", "conditions": "dose not given", "quantity": "Cmax", "value": "9200 ng/mL"}
{"SMILES": "C[C@H](NCc1ccc(OCc2ccccc2F)cc1)C(N)=O", "system": "plasma", "conditions": "concentration not given, total concentration", "quantity": "Cmax", "value": "3.1 nM"}
{"SMILES": "CC(C)(C)c1cc(C(C)(C)C)c(NC(=O)c2c[nH]c3ccccc3c2=O)cc1O", "system": "non-pregnant cystic fibrosis patients, plasma", "conditions": "dose not given", "quantity": "Cmax", "value": "1200 ng/mL"}
{"SMILES": "CC[C@H](C)C(=O)O[C@H]1C[C@H](O)C=C2C=C[C@H](C)[C@H](CC[C@@H](O)C[C@@H](O)CC(=O)O)[C@H]21", "system": "plasma", "conditions": "concentration not given, total concentration", "quantity": "Cmax", "value": "120 nM"}
{"SMILES": "CC[C@H](C)C(=O)O[C@H]1C[C@@H](C)C=C2C=C[C@H](C)[C@H](CC[C@@H]3C[C@@H](O)CC(=O)O3)[C@H]21", "system": "plasma", "conditions": "concentration not given, total, steady state", "quantity": "Cmax", "value": "100 nM"}
{"SMILES": "CN[C@H]1CC[C@@H](c2ccc(Cl)c(Cl)c2)c2ccccc21", "system": "plasma", "conditions": "concentration not given, total concentration", "quantity": "Cmax", "value": "83.3 nM"}
{"SMILES": "O=C1Nc2ccc(Cl)cc2[C@@](C#CC2CC2)(C(F)(F)F)O1", "system": "plasma", "conditions": "concentration not given, total, steady state", "quantity": "Cmax", "value": "12600 nM"}
{"note": "A few entries again:"}
{"SMILES": "Cn1c(=O)c2[nH]cnc2n(C)c1=O", "system": "plasma", "conditions": "concentration not given, total, literature data", "quantity": "Cmax", "value": "16400 nM"}
{"SMILES": "C=C(CC)C(=O)c1ccc(OCC(=O)O)c(Cl)c1Cl", "system": "plasma", "conditions": "concentration not given", "quantity": "Cmax", "value": "30900 nM"}
